# Literature values that unrelated publications cite.
# Numbered parts are unrelated; values within a part may stem from several laboratories.
# UniProt Q02763, sequence (whole entry, looked up): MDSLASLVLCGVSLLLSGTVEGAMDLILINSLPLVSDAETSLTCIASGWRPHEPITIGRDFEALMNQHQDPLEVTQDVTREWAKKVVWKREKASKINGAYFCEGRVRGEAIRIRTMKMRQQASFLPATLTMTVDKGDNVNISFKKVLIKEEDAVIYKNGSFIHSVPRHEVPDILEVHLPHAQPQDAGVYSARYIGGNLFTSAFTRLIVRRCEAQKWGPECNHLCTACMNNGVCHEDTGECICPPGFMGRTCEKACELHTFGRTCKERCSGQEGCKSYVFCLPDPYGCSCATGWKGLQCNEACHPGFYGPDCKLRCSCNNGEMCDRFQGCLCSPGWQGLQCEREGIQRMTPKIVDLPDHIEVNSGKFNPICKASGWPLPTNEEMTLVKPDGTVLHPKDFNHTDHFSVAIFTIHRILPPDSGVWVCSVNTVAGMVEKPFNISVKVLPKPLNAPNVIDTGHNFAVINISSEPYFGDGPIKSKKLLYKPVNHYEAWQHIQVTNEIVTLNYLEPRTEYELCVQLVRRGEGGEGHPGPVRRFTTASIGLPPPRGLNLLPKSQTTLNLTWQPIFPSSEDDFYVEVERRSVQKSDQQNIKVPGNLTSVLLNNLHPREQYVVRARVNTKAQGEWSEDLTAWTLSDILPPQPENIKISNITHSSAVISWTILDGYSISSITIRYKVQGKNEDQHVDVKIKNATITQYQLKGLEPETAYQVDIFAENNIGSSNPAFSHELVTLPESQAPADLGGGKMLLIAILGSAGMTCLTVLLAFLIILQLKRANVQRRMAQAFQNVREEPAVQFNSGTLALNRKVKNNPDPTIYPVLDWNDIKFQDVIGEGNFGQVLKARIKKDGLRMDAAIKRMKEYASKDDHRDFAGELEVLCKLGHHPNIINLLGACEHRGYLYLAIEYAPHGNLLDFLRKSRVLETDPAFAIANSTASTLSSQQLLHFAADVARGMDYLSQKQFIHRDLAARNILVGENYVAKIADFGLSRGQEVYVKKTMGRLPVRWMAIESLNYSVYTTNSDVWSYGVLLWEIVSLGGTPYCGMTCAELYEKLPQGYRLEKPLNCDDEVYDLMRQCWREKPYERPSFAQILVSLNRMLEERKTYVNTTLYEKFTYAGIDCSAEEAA

# Sample 1 — organism: Toxoplasma gondii; effect on: parasite growth; tested at: concentration not given
Compound,antiparasitic activity
CO[C@H]1O[C@@H]2O[C@@]3(C)CC[C@H]4[C@H](C)CC[C@@H]([C@H]1C)[C@@]24OO3,active
COc1c(N2CCNC(C)C2)c(F)cc2c(=O)c(C(=O)O)cn(C3CC3)c12 (centres unmarked),active
COC(=O)Nc1nc2ccc(C(=O)c3ccccc3)cc2[nH]1,active
CC[C@H]1OC(=O)[C@H](C)[C@@H](O[C@H]2C[C@@](C)(OC)[C@@H](O)[C@H](C)O2)[C@H](C)[C@@H](O[C@@H]2O[C@H](C)C[C@H](N(C)C)[C@H]2O)[C@](C)(O)C[C@@H](C)CN(C)[C@H](C)[C@@H](O)[C@]1(C)O,active
CCc1nc(N)nc(N)c1-c1ccc(Cl)cc1,active

# Sample 2 — SMILES: CN(C)CC/C=C1/c2ccccc2Sc2ccc(Cl)cc21; cell line: MCF7; technique: microarray; tested at: concentration not given; relative to: DMSO
assay,log2 fold change
measured: VEZF1 mRNA,1.33
measured: STX5 mRNA,1.52
measured: VEGFA mRNA,2.18
measured: TBC1D17 mRNA,1.34
measured: TRIB1 mRNA,2.45
measured: USO1 mRNA,1.44
measured: WDR45 mRNA,1.22

# Mixed results
SMILES,target,assay,system,conditions,IC50
O=C(O)c1cc(-c2ccc(C3CCNCC3)cc2)c2ccc(-c3ccc(C(F)(F)F)cc3)cc2c1,CYSLTR1,radioligand binding,,1 µM,560 nM
Cc1cc(C)c(-n2ccn3nc(-c4cccnc4)cc23)cc1NC(=O)c1cc(C#N)cc(S(F)(F)(F)(F)F)c1,"TEK (Homo sapiens, UniProt Q02763)",NanoBRET,cells,,1.7 nM
O=C(Cc1ccccc1)Nc1nnc(N2CC[C@@H]3[C@H]2CN3c2cccnn2)s1,GLS2,enzyme activity,,,> 30000 nM
COCCOc1nc(-c2ccc(Cl)nc2)nc2c1CN(C(=O)c1ncn3ccccc13)CC2,PDE10A (human),cellular activity,,,49 nM
CC1=C(C#N)[C@@H](c2ccc3[nH]nc(C)c3c2)C(C#N)=C(c2ccc(Cl)cc2)N1,MET,biochemical,,,11000 nM

# Repeated from above (sample 2):
assay,log2 fold change
measured: STX5 mRNA,1.52
measured: VEGFA mRNA,2.18
